# Published values gathered from unrelated publications.
# ± marks the error that the study gave.
# Sequence of UniProt O13828 (whole entry, looked up): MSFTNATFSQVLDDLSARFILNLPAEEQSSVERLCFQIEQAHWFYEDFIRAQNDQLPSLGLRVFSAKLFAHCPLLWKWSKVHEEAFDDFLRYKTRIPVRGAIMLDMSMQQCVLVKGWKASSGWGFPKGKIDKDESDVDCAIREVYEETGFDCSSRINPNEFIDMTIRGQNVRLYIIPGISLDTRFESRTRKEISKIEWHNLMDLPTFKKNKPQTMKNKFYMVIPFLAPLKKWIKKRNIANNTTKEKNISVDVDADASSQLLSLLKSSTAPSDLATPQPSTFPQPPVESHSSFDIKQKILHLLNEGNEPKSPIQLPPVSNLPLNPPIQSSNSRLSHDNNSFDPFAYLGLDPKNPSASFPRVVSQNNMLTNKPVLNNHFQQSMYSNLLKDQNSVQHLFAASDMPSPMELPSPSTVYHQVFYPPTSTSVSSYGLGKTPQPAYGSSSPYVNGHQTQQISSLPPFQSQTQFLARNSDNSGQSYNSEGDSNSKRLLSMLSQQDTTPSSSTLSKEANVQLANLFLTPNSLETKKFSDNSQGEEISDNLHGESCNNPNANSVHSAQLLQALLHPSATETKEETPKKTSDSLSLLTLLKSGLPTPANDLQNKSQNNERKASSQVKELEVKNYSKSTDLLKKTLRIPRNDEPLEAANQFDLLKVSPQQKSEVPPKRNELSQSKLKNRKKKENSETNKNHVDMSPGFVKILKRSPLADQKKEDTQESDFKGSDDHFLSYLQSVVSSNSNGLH
# Sequence of UniProt P36897 (whole entry, looked up): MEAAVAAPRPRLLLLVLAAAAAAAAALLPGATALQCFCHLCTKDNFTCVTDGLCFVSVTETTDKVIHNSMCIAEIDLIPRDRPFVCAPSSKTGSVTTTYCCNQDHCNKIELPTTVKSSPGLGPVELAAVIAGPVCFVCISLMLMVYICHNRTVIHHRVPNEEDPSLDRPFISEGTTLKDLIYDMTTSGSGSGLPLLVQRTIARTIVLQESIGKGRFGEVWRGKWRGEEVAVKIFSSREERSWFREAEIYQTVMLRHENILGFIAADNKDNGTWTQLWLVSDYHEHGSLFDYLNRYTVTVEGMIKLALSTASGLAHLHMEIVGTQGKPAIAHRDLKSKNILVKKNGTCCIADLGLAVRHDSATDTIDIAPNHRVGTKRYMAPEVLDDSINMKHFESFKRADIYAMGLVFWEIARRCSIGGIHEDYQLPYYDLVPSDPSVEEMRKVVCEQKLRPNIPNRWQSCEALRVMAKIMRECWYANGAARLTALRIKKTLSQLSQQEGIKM
# Sequence of UniProt Q9ULC6 (whole entry, looked up): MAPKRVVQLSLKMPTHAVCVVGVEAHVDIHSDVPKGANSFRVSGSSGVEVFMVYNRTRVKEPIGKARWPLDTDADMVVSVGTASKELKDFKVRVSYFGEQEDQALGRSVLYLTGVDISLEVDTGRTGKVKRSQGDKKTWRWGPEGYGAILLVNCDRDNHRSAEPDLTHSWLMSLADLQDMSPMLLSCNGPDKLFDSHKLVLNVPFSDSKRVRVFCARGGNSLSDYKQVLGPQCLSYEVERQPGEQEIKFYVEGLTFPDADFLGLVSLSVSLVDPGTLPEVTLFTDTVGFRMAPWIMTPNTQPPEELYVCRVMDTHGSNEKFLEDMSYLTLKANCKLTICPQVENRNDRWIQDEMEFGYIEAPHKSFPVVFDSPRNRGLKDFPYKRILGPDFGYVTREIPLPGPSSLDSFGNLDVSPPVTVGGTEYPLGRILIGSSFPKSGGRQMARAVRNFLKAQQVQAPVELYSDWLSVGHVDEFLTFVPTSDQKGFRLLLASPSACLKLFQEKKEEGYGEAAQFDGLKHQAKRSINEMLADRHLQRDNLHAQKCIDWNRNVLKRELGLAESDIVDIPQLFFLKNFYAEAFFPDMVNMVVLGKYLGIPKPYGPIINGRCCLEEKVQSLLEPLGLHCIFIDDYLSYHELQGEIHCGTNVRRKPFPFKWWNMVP
# Sequence of UniProt Q05655 (whole entry, looked up): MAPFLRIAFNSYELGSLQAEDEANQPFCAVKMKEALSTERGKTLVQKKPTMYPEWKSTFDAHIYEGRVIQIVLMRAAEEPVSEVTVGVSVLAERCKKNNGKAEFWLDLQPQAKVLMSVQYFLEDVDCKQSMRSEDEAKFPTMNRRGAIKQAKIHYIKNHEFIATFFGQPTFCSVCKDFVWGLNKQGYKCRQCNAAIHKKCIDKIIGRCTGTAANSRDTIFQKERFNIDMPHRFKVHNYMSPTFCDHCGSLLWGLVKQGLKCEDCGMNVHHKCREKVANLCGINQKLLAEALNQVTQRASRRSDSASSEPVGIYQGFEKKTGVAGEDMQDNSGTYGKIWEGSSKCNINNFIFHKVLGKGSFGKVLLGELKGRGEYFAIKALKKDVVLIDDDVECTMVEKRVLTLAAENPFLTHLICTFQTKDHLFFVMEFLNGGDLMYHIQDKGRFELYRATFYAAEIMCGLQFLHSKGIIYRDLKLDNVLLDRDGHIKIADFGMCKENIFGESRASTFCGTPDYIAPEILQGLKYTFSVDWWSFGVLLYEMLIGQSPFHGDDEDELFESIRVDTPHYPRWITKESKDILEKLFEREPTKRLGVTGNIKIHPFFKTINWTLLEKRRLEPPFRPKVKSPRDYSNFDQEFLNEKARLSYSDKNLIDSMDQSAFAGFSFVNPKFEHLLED
# Sequence of UniProt O94804 (whole entry, looked up): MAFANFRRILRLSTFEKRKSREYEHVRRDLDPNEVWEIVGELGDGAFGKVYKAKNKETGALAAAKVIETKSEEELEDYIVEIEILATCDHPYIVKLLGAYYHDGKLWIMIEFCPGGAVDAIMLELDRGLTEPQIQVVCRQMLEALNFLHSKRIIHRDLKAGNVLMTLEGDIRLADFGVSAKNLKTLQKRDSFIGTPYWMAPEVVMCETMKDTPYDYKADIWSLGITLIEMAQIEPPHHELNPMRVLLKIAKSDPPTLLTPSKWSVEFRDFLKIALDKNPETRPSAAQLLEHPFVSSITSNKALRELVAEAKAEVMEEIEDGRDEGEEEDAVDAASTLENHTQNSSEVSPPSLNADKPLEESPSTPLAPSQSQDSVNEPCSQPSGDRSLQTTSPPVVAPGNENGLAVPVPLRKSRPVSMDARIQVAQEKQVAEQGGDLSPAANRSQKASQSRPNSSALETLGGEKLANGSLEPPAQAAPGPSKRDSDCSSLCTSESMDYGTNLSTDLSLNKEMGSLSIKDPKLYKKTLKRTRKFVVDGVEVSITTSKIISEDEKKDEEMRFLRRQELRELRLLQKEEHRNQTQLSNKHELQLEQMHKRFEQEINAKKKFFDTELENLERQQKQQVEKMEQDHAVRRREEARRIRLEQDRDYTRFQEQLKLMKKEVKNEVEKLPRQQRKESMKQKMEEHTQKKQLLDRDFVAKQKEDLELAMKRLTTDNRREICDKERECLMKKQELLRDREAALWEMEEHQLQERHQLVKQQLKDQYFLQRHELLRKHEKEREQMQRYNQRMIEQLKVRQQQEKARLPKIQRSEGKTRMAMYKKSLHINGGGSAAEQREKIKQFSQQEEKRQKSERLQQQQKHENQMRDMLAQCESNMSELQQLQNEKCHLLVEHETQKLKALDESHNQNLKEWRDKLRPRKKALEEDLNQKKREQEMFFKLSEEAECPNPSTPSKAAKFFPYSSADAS
# Sequence of UniProt O42275 (whole entry, looked up): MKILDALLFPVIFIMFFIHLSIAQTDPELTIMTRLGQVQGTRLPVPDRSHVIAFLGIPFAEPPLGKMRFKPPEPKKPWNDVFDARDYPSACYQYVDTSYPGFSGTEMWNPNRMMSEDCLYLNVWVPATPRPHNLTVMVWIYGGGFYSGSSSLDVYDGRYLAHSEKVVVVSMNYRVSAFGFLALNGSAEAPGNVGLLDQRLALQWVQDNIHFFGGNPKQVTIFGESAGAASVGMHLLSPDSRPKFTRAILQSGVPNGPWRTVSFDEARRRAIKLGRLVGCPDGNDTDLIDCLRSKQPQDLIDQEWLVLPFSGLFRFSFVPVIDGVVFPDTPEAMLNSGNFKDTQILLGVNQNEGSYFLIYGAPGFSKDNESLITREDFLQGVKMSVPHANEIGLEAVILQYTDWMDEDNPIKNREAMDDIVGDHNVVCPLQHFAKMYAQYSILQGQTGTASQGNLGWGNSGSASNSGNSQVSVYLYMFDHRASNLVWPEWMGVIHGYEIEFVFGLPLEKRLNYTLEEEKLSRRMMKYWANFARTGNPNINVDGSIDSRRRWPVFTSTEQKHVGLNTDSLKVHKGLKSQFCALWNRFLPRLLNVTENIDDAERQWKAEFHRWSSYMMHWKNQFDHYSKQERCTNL
# Sequence of UniProt Q15835 (whole entry, looked up): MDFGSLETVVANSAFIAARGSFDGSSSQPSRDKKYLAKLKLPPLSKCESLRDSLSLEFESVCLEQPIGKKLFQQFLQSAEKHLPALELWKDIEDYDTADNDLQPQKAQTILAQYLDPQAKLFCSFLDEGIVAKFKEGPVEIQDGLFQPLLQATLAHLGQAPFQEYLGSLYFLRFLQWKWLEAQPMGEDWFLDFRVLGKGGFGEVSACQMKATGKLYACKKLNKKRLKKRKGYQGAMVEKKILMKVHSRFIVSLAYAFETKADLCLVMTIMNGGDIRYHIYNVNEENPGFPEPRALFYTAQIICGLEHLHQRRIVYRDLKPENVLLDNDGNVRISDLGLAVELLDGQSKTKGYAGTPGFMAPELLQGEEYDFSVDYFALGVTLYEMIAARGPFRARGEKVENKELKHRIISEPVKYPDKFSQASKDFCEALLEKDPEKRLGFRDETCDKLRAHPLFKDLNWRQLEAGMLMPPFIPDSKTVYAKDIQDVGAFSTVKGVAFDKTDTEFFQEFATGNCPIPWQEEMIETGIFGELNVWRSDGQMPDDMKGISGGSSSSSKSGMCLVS
Compound,target,assay,test system,conditions,inhibition [%]
OB(O)c1cnn(-c2cc(Cl)ncn2)c1,"Beta-lactamase (ampC, Escherichia coli K-12, UniProt P00811)",enzyme activity,,"5 x IC50, no preincubation",~80
C[C@H](NCc1ccc(-c2ccc(C(F)(F)F)cc2)cc1)C(N)=O,"TGF-beta receptor type-1 (TGFBR1, Homo sapiens, UniProt P36897)","cell-free assay, competition with immobilised ligand",,1 µM,17
Cc1ccc(-n2cc(CCS(=O)(=O)F)nn2)cc1,"Acetylcholinesterase (ache, Electrophorus electricus, UniProt O42275)",Ellman,,20 µM,34.6 ± 2.1
CS(C)(=O)=Nc1ccc(-c2ccc(-c3nc4cc(O[C@@H]5CO[C@H]6[C@@H]5OC[C@H]6O)[nH]c4cc3F)cc2)cc1,"Rhodopsin kinase GRK1 (GRK1, Homo sapiens, UniProt Q15835)","enzyme activity, inhibitor",,10 µM,6
C[n+]1cn([C@@H]2O[C@H](COP(=O)(O)CP(=O)([O-])OP(=O)(O)O)[C@@H](O)[C@H]2O)c2nc(N)nc(O)c21,"mRNA decapping complex subunit 2, with Dcp1 (dcp2, Schizosaccharomyces pombe, UniProt O13828)",,,"200 µM, 0.25 h",8.3
C=CC(=O)Nc1cc(-c2nn(C3CCC(N4CCN(C(C)=O)CC4)CC3)c3ncnc(N)c23)ccc1Oc1ccccc1 (stereo not drawn),"Serine/threonine-protein kinase VRK2 (VRK2, Homo sapiens, UniProt Q86Y07)","inhibitor, KiNativ profiling",biochemical,2 µM,13.6
O=C(NC1CCN(c2ncnc3[nH]cnc23)CC1)c1cccc(NS(=O)(=O)c2ccc(C(F)(F)F)cc2)c1,"Genome polyprotein, NS5 methyltransferase domain (Zika virus, UniProt Q32ZE1)","NS5 enzyme activity, inhibitor",,25 µM,-4.08
COc1ccc(F)cc1S(=O)(=O)Nc1cnc2c(c1)C(=O)NCCO2,GABA transporter,radioligand binding,,10 µM,-1
O=C(O)c1ccccc1/C=N/Nc1nc(-c2ccccc2Cl)cs1,LYNb,enzyme activity,,1 µM,13.8
N[C@H](C(=O)N1CCCC1)C1CCN(c2nccc3c(-c4ncc(Cl)cc4Cl)cccc23)CC1,"Protein-arginine deiminase type-1 (PADI1, Homo sapiens, UniProt Q9ULC6)","enzyme activity, inhibitor",,3.84 µM,95.6
CC(C)[C@H]1NC(=O)C[C@H]2/C=C/CCSSC[C@@H](NC1=O)C(=O)N[C@H](Cc1cccc3ccccc13)C(=O)NCC(=O)O2,"Protein kinase C delta type (PRKCD, Homo sapiens, UniProt Q05655)","enzyme activity, inhibitor",,10 µM,6.7
CN(C)[C@H]1C[C@@]23CC[C@@]4(O2)C(=CC[C@]2(C)[C@@H](c5ccc6ccncc6c5)CC[C@H]24)C=C3[C@@H](O)[C@@H]1O,"Serine/threonine-protein kinase 10 (STK10, Homo sapiens, UniProt O94804)","ATP probe labelling, inhibitor, KiNativ profiling",,1 µM,-7.5

# Repeated from above:
Compound,target,assay,test system,conditions,inhibition [%]
O=C(O)c1ccccc1/C=N/Nc1nc(-c2ccccc2Cl)cs1,LYNb,enzyme activity,,1 µM,13.8
